Results gathered from unrelated publications.
Numbered parts are unrelated; each lists some results of a single study. Several values in a cell are separate wells, animals, samples, runs or records.
Sequence of UniProt P54756 (whole entry, looked up): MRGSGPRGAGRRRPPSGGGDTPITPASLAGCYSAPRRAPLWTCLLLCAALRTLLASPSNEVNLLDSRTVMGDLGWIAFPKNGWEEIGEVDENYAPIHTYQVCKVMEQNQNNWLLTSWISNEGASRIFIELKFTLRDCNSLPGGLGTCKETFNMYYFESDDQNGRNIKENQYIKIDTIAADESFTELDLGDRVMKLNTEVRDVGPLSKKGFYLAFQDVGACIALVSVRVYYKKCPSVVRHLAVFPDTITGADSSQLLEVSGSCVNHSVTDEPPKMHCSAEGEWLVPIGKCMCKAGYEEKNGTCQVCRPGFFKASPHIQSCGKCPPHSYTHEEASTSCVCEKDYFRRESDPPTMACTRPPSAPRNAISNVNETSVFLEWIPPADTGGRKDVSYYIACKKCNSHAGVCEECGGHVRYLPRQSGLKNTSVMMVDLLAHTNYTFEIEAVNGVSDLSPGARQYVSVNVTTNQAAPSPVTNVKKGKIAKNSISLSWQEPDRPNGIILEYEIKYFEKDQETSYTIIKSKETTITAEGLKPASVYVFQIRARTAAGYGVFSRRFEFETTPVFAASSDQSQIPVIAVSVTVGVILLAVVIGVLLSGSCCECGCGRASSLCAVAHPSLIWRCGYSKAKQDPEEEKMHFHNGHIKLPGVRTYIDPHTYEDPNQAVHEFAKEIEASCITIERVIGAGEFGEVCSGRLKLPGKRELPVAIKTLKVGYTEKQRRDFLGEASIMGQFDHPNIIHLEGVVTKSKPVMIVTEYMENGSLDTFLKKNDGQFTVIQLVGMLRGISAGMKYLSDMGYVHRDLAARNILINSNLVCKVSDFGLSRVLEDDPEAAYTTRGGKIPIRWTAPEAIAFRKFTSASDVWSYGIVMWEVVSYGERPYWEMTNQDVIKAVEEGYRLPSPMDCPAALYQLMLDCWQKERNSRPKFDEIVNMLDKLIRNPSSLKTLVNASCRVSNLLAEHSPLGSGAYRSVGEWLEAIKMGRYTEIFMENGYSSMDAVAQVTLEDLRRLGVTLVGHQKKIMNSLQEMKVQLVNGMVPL
Sequence of UniProt Q9P1W9 (whole entry, looked up): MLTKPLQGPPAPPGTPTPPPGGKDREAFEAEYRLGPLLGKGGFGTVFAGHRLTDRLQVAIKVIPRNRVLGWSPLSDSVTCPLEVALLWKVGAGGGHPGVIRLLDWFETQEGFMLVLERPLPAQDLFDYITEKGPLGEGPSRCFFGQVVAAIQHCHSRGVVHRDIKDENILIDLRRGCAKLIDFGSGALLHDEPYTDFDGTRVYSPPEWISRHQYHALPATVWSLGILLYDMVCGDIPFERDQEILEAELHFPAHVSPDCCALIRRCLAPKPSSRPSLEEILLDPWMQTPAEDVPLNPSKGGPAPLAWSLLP
Sequence of UniProt Q9Y243 (whole entry, looked up): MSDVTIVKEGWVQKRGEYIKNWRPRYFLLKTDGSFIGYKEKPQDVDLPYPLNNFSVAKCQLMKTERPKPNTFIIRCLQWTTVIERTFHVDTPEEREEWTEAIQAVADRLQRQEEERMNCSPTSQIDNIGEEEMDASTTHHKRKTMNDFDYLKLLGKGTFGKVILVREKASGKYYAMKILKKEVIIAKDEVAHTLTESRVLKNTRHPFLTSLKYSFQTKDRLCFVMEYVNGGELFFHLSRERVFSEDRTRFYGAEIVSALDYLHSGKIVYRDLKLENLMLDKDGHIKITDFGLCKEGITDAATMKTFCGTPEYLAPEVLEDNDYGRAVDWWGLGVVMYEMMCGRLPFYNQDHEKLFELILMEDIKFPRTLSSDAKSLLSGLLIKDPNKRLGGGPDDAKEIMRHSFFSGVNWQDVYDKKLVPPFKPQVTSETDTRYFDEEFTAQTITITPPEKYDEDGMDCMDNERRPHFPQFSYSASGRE
Sequence of UniProt P25100 (whole entry, looked up): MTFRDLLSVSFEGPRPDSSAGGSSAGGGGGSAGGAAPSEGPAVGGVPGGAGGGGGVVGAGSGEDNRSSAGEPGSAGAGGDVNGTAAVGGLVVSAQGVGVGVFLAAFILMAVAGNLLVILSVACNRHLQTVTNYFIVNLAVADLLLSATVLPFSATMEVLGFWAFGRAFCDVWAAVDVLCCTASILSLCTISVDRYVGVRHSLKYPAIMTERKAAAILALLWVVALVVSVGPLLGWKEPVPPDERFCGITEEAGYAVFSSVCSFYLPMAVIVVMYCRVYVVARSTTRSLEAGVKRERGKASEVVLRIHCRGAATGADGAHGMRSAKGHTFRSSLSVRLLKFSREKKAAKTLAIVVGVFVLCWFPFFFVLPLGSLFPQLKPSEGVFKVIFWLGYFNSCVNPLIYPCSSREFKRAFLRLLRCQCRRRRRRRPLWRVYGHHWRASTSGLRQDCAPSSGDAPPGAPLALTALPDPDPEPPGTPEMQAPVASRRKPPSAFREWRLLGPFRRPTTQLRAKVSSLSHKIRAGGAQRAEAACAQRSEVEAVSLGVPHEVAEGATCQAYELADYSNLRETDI

Block 1
SMILES: COc1ccc2[nH]c3c4[nH]c5ccc(OC)cc5c4c4c(c3c2c1)C(=O)NC4=O
Concentration: 1 µM
target | assay | conditions | scale | remaining binding
SRPK2 (Homo sapiens, UniProt P78362) | competitive binding panel | – | relative to: vehicle | 94%
MAP3K5 (Homo sapiens, UniProt Q99683) | competitive binding panel, item: ASK1 | – | relative to: vehicle | 83%
EPHA5 (Homo sapiens, UniProt P54756) | competitive binding panel | – | relative to: vehicle | 85%
CDKL5 (Homo sapiens, UniProt O76039) | competitive binding panel | – | relative to: vehicle | 94%
BRSK1 (Homo sapiens, UniProt Q8TDC3) | competitive binding panel | – | relative to: vehicle | 10%
MAPK10 (Homo sapiens, UniProt P53779) | competitive binding | JNK3 | – | 31%
ABL1 (Homo sapiens, UniProt P00519, Y253F) | competitive binding panel | – | relative to: vehicle | 53%
CSNK1A1L (Homo sapiens, UniProt Q8N752) | competitive binding panel | – | relative to: vehicle | 91%
PAK2 (Homo sapiens, UniProt Q13177) | competitive binding panel | – | relative to: vehicle | 91%
STK17A (Homo sapiens, UniProt Q9UEE5) | competitive binding panel, item: DRAK1 | – | relative to: vehicle | 0.4%
FLT1 (Homo sapiens, UniProt P17948) | competitive binding panel | – | relative to: vehicle | 79%
MAP3K7 (Homo sapiens, UniProt O43318) | competitive binding panel, item: TAK1 | – | relative to: vehicle | 20%
IKBKB (Homo sapiens, UniProt O14920) | competitive binding | IKK-beta | – | 87%
PIM2 (Homo sapiens, UniProt Q9P1W9) | competitive binding panel | – | relative to: vehicle | 0.5%
ACVR2B (Homo sapiens, UniProt Q13705) | competitive binding panel | – | relative to: vehicle | 44%

Block 2
SMILES: CNC(=O)c1cc(C(=O)N[C@H]2[C@@H]3COC[C@@H]32)cc2c1O[C@@H](CF)[C@@H]2c1ccccc1
Observed: binding
Method: radioligand binding
Concentration: 10 µM
target | inhibition [%]
HRH2 (Homo sapiens, UniProt P25021) | 4.49
HRH4 (Homo sapiens, UniProt Q9H3N8) | -13.3
ADRA1D (Homo sapiens, UniProt P25100) | -7.87
ADRA2B (Homo sapiens, UniProt P18089) | 22.8
ADRA2C (Homo sapiens, UniProt P18825) | 7.66
ADRA1B (Homo sapiens, UniProt P35368) | -0.98
CHRM2 (Homo sapiens, UniProt P08172) | -7.3
DRD1 (Homo sapiens, UniProt P21728) | -6.73
ADRB3 (Homo sapiens, UniProt P13945) | 31
HTR7 (Homo sapiens, UniProt P34969) | 1.31
CHRM4 (Homo sapiens, UniProt P08173) | 6.19
HRH1 (Homo sapiens, UniProt P35367) | -1.58
HTR5A (Homo sapiens, UniProt P47898) | -11.2
HTR3A (Homo sapiens, UniProt P46098) | 10.6

Block 3
Target: DNA polymerase theta, ATPase domain (POLQ, Homo sapiens, UniProt O75417)
Sequence of UniProt O75417 (whole entry, unmodified, looked up): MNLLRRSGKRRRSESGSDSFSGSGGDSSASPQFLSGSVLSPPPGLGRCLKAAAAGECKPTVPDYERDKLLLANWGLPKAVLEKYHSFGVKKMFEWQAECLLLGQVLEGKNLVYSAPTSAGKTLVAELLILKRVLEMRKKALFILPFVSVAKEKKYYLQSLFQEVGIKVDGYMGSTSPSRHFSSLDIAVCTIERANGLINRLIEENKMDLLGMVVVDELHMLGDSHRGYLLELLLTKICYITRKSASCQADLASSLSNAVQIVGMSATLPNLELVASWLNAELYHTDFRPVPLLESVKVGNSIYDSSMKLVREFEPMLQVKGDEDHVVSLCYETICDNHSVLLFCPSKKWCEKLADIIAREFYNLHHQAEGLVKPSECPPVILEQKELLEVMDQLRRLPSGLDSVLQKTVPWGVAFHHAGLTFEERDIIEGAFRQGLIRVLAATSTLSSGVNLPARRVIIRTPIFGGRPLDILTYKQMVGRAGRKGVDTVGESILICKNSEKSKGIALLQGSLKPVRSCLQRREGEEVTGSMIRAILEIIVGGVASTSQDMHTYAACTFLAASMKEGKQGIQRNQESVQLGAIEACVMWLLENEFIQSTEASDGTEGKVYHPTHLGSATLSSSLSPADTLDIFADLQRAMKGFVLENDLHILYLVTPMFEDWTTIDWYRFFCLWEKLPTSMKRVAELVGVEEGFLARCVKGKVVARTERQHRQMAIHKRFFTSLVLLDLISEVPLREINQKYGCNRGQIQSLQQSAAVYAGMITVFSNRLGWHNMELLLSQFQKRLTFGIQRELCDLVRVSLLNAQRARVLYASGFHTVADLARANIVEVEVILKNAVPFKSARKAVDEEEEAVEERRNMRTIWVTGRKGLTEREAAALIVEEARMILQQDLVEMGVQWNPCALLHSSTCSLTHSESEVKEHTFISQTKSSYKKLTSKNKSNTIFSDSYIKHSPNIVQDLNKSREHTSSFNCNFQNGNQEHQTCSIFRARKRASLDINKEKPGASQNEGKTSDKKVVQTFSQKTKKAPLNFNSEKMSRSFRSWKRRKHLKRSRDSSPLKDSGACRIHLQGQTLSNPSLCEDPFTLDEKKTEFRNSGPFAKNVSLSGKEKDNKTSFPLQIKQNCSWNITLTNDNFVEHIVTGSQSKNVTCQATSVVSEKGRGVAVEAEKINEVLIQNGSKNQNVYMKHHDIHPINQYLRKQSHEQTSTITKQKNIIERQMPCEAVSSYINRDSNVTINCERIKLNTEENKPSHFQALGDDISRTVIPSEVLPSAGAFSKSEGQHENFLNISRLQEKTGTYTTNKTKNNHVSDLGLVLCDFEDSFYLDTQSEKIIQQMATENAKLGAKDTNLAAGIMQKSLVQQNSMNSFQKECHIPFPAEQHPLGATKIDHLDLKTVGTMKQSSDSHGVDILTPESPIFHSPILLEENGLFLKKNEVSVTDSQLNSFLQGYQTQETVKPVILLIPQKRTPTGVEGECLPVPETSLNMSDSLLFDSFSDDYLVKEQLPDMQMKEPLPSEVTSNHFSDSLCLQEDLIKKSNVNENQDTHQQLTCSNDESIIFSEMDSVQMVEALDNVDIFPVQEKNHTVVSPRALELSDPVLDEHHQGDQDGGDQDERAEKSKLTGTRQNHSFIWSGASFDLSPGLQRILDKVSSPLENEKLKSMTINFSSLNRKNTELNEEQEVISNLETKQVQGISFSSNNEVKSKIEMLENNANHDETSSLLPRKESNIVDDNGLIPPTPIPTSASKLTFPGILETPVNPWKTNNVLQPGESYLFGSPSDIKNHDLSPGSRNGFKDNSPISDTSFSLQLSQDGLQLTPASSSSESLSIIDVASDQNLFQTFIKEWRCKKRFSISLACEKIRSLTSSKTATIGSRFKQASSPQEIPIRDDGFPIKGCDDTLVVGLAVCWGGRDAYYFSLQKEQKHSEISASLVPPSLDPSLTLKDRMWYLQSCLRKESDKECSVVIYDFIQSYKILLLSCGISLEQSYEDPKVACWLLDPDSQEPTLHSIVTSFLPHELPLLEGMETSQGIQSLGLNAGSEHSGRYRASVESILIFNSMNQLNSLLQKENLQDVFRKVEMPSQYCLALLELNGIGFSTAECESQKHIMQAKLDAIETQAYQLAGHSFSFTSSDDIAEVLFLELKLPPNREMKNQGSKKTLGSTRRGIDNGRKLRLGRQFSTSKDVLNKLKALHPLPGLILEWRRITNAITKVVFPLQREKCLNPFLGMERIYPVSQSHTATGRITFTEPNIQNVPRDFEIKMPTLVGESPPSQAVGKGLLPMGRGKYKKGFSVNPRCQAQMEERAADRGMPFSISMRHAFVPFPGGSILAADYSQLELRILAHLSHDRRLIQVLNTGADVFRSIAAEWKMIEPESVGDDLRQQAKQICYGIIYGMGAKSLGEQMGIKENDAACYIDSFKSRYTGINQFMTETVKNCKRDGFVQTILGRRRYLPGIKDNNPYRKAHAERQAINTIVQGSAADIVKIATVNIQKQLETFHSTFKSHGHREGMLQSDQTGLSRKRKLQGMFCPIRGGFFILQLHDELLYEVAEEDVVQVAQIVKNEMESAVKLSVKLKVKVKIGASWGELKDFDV
Observed: enzyme activity
Action: inhibitor
Concentration: 77 µM
Relative to: untreated
SMILES | remaining activity
Fc1ccc2[nH]c(CN3CCN(c4ccccn4)CC3)cc2c1 | 95.4%
CC(=O)SCC(Cc1ccccc1)C(=O)NCC(=O)OCc1ccccc1 (stereo not shown) | 98.8% and 100%
O=C(CCSCc1ccco1)NNC(=O)N1Cc2ccccc2Oc2ccc(Cl)cc21 | 98.7%
NCCCCCNCC12CC3CC(CC(C3)C1)C2 | 99.5%
O=C(NC[C@H]1CN(c2ccc(N3CCOCC3=O)cc2)C(=O)O1)c1ccc(Cl)s1 | 103%
C[C@H]1C[C@H]2[C@@H]3CCC4=CC(=O)C=C[C@]4(C)[C@H]3C(=O)C[C@]2(C)[C@@]1(O)C(=O)CO | 95.5%
CCN(CC)CCNc1ccc(CO)c2sc3ccccc3c(=O)c12 | 94%
NCCCC[C@H](N[C@@H](CCc1ccccc1)C(=O)O)C(=O)N1CCC[C@H]1C(=O)O | 98.3%
COc1cc2c(Nc3ccc(Br)cc3F)ncnc2cc1OCC1CCN(C)CC1 | 90.8% and 67.9% and 81%
O=C1OC(CN2CCOCC2)CN1/N=C/c1ccc([N+](=O)[O-])o1 (stereo not shown) | 101%

Block 4
SMILES: Cn1cnc2cc3c(Nc4cccc(Br)c4)ncnc3cc21
Observed: enzyme activity
Action: inhibitor
Concentration: 0.5 µM
Relative to: control
target | remaining activity [%]
NEK4 (Homo sapiens, UniProt P51957) | 96.8
MAPK12 (Homo sapiens, UniProt P53778) | 92
KIT (Homo sapiens, UniProt P10721) | 78.6
PLK2 (Homo sapiens, UniProt Q9NYY3) | 101
LYN (Homo sapiens, UniProt P07948) | 52.4
MAP4K2 (Homo sapiens, UniProt Q12851) | 90.4
PRKG1 (Homo sapiens, UniProt Q13976) | 97.8
LRRK2 (Homo sapiens, UniProt Q5S007) | 68.2
MAP2K6 (Homo sapiens, UniProt P52564) | 104
PRKCD (Homo sapiens, UniProt Q05655) | 91.8
BTK (Homo sapiens, UniProt Q06187) | 86.8
AKT3 (Homo sapiens, UniProt Q9Y243) | 89.5
MAPK13 (Homo sapiens, UniProt O15264) | 101
PRKCI (Homo sapiens, UniProt P41743) | 100
CHEK1 (Homo sapiens, UniProt O14757) | 113
MKNK2 (Homo sapiens, UniProt Q9HBH9) | 32.2
CSNK2A1 (Homo sapiens, UniProt P68400) | 99
WNK2 (Homo sapiens, UniProt Q9Y3S1) | 89.7
Cyclin-dependent kinase 9, with cyclin T1 (CDK9, Homo sapiens, UniProt P50750) | 88.5
IRAK4 (Homo sapiens, UniProt Q9NWZ3) | 89.1
EPHA5 (Homo sapiens, UniProt P54756) | 71.5
CSNK1A1 (Homo sapiens, UniProt P48729) | 102
